{"data": "Measurements of several laboratories", "organism": "Klebsiella pneumoniae", "note": "Lines come from different studies, so protocols differ. Numbers after ± are the reported error."}
{"SMILES": "COc1ccc2ccc3c(c2c1)C=[N+]1C2CCCCC2[N+]2=Cc4c(OC)cccc4[O][Au-]21[O]3.F[P-](F)(F)(F)(F)F (stereo not drawn)", "test": "bacterial growth, broth microdilution", "test system": "carbapenem-resistant", "setting": "24 h", "quantity": "MIC", "result": "> 20 µM"}
{"SMILES": "C[C@@](O)(C(F)F)[C@H](NC(=O)c1ccc(C#CC#CC2CC2)cc1)C(=O)NO", "test system": "10031", "quantity": "MIC after serial passage", "result": "1 to 2 µg/mL"}
{"SMILES": "COc1ccc2ccc3c(c2c1)C=[N+]1C2CCCCC2[N+]2=Cc4ccccc4[O][Au-]21[O]3.F[P-](F)(F)(F)(F)F (stereo not drawn)", "test": "bacterial growth, broth microdilution", "test system": "carbapenem-resistant", "setting": "24 h", "quantity": "MIC", "result": "> 20 µM"}
{"SMILES": "CCCCCC(=O)NCC(=O)N[C@@H](CC(C)C)C(=O)N[C@@H](CC(C)C)C(=O)N[C@@H](CCCCN)C(=O)N[C@@H](CCCNC(=N)N)C(=O)N[C@H](C(=O)N[C@@H](CCCCN)C(=O)N[C@H](C(=O)N[C@@H](CC(C)C)C(=O)N[C@@H](CC(C)C)C(=O)NCCCC[C@H](NC(=O)[C@H](CC(C)C)NC(=O)[C@H](CC(C)C)NC(=O)[C@@H](NC(=O)[C@H](CCCCN)NC(=O)[C@@H](NC(=O)[C@H](CCCNC(=N)N)NC(=O)[C@H](CCCCN)NC(=O)[C@H](CC(C)C)NC(=O)[C@H](CC(C)C)NC(=O)CNC(=O)CCCCC)[C@@H](C)CC)[C@@H](C)O)C(N)=O)[C@@H](C)O)[C@@H](C)CC", "test": "checkerboard", "test system": "ATCC 700603", "setting": "added: gentamicin", "quantity": "FIC index", "result": 0.375}
{"SMILES": "COc1ccc2ccc3c(c2c1)C=[N+]1C2CCCCC2[N+]2=Cc4cc(C(C)(C)C)ccc4[O][Au-]21[O]3.F[P-](F)(F)(F)(F)F (stereo not drawn)", "test": "bacterial growth, broth microdilution", "test system": "carbapenem-resistant clinical isolate", "setting": "24 h", "quantity": "MIC", "result": "10 µM"}
{"SMILES": "CC[C@H](C)[C@H](NC(=O)[C@H](C)NC(=O)[C@@H](NC(=O)[C@H](CC(=O)O)NC(=O)[C@H](CCCCN)NC(=O)[C@H](CO)NC(=O)[C@@H](NC(=O)[C@H](CC(N)=O)NC(=O)[C@H](C)NC(=O)[C@@H](NC(=O)[C@H](CCC(=O)O)NC(=O)[C@H](CCCCN)NC(=O)[C@@H](NC(=O)[C@@H](NC(=O)[C@H](Cc1c[nH]cn1)NC(=O)[C@H](CCCCN)NC(=O)[C@@H](NC(=O)[C@H](CCCCN)NC(=O)[C@H](CCCCN)NC(=O)[C@@H](NC(=O)[C@H](CC(C)C)NC(=O)[C@H](CCCCN)NC(=O)[C@H](CC(N)=O)NC(=O)[C@H](Cc1ccccc1)NC(=O)[C@H](CCCNC(=N)N)NC(=O)[C@H](CCCCN)NC(=O)[C@H](CCCNC(=N)N)NC(=O)[C@H](Cc1ccccc1)NC(=O)CN)C(C)C)C(C)C)[C@@H](C)O)[C@@H](C)CC)[C@@H](C)O)C(C)C)C(C)C)C(=O)N[C@H](C(=O)N[C@@H](C)C(=O)NCC(=O)N[C@@H](CO)C(=O)NCC(=O)N[C@H](C(=O)N[C@@H](C)C(=O)N[C@H](C(=O)NCC(=O)N[C@@H](C)C(=O)N[C@@H](C)C(=O)N[C@@H](CCSC)C(N)=O)C(C)C)C(C)C)C(C)C", "test system": "isolate RKI 93/10, CAMHB", "quantity": "MIC", "result": "4 µg/mL"}
{"SMILES": "COc1ccc2ccc3c(c2c1)C=[N+]1C2CCCCC2[N+]2=Cc4cccc(C)c4[O][Au-]21[O]3.F[P-](F)(F)(F)(F)F (stereo not drawn)", "test": "bacterial growth, broth microdilution", "test system": "carbapenem-resistant clinical isolate", "setting": "24 h", "quantity": "MIC", "result": "20 µM"}
{"SMILES": "CCCCCC(=O)NCC(=O)N[C@@H](CC(C)C)C(=O)N[C@@H](CC(C)C)C(=O)N[C@@H](CCCCN)C(=O)N[C@@H](CCCNC(=N)N)C(=O)N[C@H](C(=O)N[C@@H](CCCCN)C(=O)N[C@H](C(=O)N[C@@H](CC(C)C)C(=O)N[C@@H](CC(C)C)C(=O)NCCCC[C@H](NC(=O)[C@H](CCCCNC(=O)[C@H](CC(C)C)NC(=O)[C@H](CC(C)C)NC(=O)[C@@H](NC(=O)[C@H](CCCCN)NC(=O)[C@@H](NC(=O)[C@H](CCCNC(=N)N)NC(=O)[C@H](CCCCN)NC(=O)[C@H](CC(C)C)NC(=O)[C@H](CC(C)C)NC(=O)CNC(=O)CCCCC)[C@@H](C)CC)[C@@H](C)O)NC(=O)[C@H](CC(C)C)NC(=O)[C@H](CC(C)C)NC(=O)[C@@H](NC(=O)[C@H](CCCCN)NC(=O)[C@@H](NC(=O)[C@H](CCCNC(=N)N)NC(=O)[C@H](CCCCN)NC(=O)[C@H](CC(C)C)NC(=O)[C@H](CC(C)C)NC(=O)CNC(=O)CCCCC)[C@@H](C)CC)[C@@H](C)O)C(N)=O)[C@@H](C)O)[C@@H](C)CC", "test": "checkerboard", "test system": "ATCC 700603", "setting": "added: rifampicin", "quantity": "FIC index", "result": 0.125}
{"SMILES": "C[C@H]1COc2c(N3CCN(C)CC3)c(F)cc3c(=O)c(C(=O)N[C@@H](CCCNC(=N)N)C(=O)N[C@@H](Cc4ccc(-c5ccccc5)cc4)C(=O)N[C@@H](CCCNC(=N)N)C(=O)N[C@@H](Cc4ccc(-c5ccccc5)cc4)C(=O)N[C@@H](CCCNC(=N)N)C(N)=O)cn1c23", "test system": "ATCC 2814", "how to read": "reference: IC50 MDCK cells over MIC", "quantity": "selectivity index", "result": 4.4}
{"SMILES": "CCCC(=O)NCC(=O)N[C@@H](CC(C)C)C(=O)N[C@@H](CC(C)C)C(=O)N[C@@H](CCCCN)C(=O)N[C@@H](CCCNC(=N)N)C(=O)N[C@H](C(=O)N[C@@H](CCCCN)C(=O)N[C@H](C(=O)N[C@@H](CC(C)C)C(=O)N[C@@H](CC(C)C)C(=O)NCCCC[C@H](NC(=O)[C@H](CC(C)C)NC(=O)[C@H](CC(C)C)NC(=O)[C@@H](NC(=O)[C@H](CCCCN)NC(=O)[C@@H](NC(=O)[C@H](CCCNC(=N)N)NC(=O)[C@H](CCCCN)NC(=O)[C@H](CC(C)C)NC(=O)[C@H](CC(C)C)NC(=O)CNC(=O)CCC)[C@@H](C)CC)[C@@H](C)O)C(=O)NCCCC[C@H](NC(=O)[C@H](CCCCNC(=O)[C@H](CC(C)C)NC(=O)[C@H](CC(C)C)NC(=O)[C@@H](NC(=O)[C@H](CCCCN)NC(=O)[C@@H](NC(=O)[C@H](CCCNC(=N)N)NC(=O)[C@H](CCCCN)NC(=O)[C@H](CC(C)C)NC(=O)[C@H](CC(C)C)NC(=O)CNC(=O)CCC)[C@@H](C)CC)[C@@H](C)O)NC(=O)[C@H](CC(C)C)NC(=O)[C@H](CC(C)C)NC(=O)[C@@H](NC(=O)[C@H](CCCCN)NC(=O)[C@@H](NC(=O)[C@H](CCCNC(=N)N)NC(=O)[C@H](CCCCN)NC(=O)[C@H](CC(C)C)NC(=O)[C@H](CC(C)C)NC(=O)CNC(=O)CCC)[C@@H](C)CC)[C@@H](C)O)C(N)=O)[C@@H](C)O)[C@@H](C)CC", "test": "checkerboard", "test system": "ATCC 700603", "setting": "added: polymyxin B", "quantity": "FIC index", "result": 0.125}
{"SMILES": "COc1ccc(-c2ccn(CC[C@](C)(C(=O)NO)S(C)(=O)=O)c(=O)c2)c(F)c1", "test system": "KP-1487 FabZ P22S, neutropenic mice, thigh infection", "setting": "dose not given, 24 h", "quantity": "AUC/MIC for 1-log kill", "result": "3.45 ± 2.11"}
{"SMILES": "CCCC(=O)NCC(=O)N[C@@H](CC(C)C)C(=O)N[C@@H](CC(C)C)C(=O)N[C@@H](CCCCN)C(=O)N[C@@H](CCCNC(=N)N)C(=O)N[C@H](C(=O)N[C@@H](CCCCN)C(=O)N[C@H](C(=O)N[C@@H](CC(C)C)C(=O)N[C@@H](CC(C)C)C(=O)NCCCC[C@H](NC(=O)[C@H](CC(C)C)NC(=O)[C@H](CC(C)C)NC(=O)[C@@H](NC(=O)[C@H](CCCCN)NC(=O)[C@@H](NC(=O)[C@H](CCCNC(=N)N)NC(=O)[C@H](CCCCN)NC(=O)[C@H](CC(C)C)NC(=O)[C@H](CC(C)C)NC(=O)CNC(=O)CCC)[C@@H](C)CC)[C@@H](C)O)C(N)=O)[C@@H](C)O)[C@@H](C)CC", "test": "checkerboard", "test system": "ATCC 700603", "setting": "added: rifampicin", "quantity": "FIC index", "result": 0.375}
{"SMILES": "COc1ccc2c(c1)[O][Au-]13[O]c4ccc5ccc(OC)cc5c4C=[N+]1C1CCCCC1[N+]3=C2.F[P-](F)(F)(F)(F)F (stereo not drawn)", "test": "bacterial growth, broth microdilution", "test system": "carbapenem-resistant clinical isolate", "setting": "24 h", "quantity": "MIC", "result": "> 20 µM"}
{"SMILES": "CC[C@H](C)[C@H](NC(=O)[C@H](CCCNC(=N)N)NC(=O)[C@H](CCCCN)NC(=O)[C@H](CC(C)C)NC(=O)[C@H](CC(C)C)NC(=O)CN)C(=O)N[C@@H](CCCCN)C(=O)N[C@H](C(=O)N[C@@H](CC(C)C)C(=O)N[C@@H](CC(C)C)C(=O)NCCCC[C@H](NC(=O)[C@H](CCCCNC(=O)[C@H](CC(C)C)NC(=O)[C@H](CC(C)C)NC(=O)[C@@H](NC(=O)[C@H](CCCCN)NC(=O)[C@@H](NC(=O)[C@H](CCCNC(=N)N)NC(=O)[C@H](CCCCN)NC(=O)[C@H](CC(C)C)NC(=O)[C@H](CC(C)C)NC(=O)CN)[C@@H](C)CC)[C@@H](C)O)NC(=O)[C@H](CC(C)C)NC(=O)[C@H](CC(C)C)NC(=O)[C@@H](NC(=O)[C@H](CCCCN)NC(=O)[C@@H](NC(=O)[C@H](CCCNC(=N)N)NC(=O)[C@H](CCCCN)NC(=O)[C@H](CC(C)C)NC(=O)[C@H](CC(C)C)NC(=O)CN)[C@@H](C)CC)[C@@H](C)O)C(N)=O)[C@@H](C)O", "test": "checkerboard", "test system": "ATCC 700603", "setting": "added: gentamicin", "quantity": "FIC index", "result": 0.625}
{"SMILES": "CN(C)S(=O)(=O)c1ccc(S(=O)(=O)N2CCC(n3c(=O)[nH]c4ccccc43)CC2)cc1", "test": "survival under NO stress", "test system": "DOU", "setting": "4 h, added: NOC-5 14 µM", "quantity": "IC50", "result": "78.8 µM"}
{"note": "A few entries again:"}
{"SMILES": "CC[C@H](C)[C@H](NC(=O)[C@H](C)NC(=O)[C@@H](NC(=O)[C@H](CC(=O)O)NC(=O)[C@H](CCCCN)NC(=O)[C@H](CO)NC(=O)[C@@H](NC(=O)[C@H](CC(N)=O)NC(=O)[C@H](C)NC(=O)[C@@H](NC(=O)[C@H](CCC(=O)O)NC(=O)[C@H](CCCCN)NC(=O)[C@@H](NC(=O)[C@@H](NC(=O)[C@H](Cc1c[nH]cn1)NC(=O)[C@H](CCCCN)NC(=O)[C@@H](NC(=O)[C@H](CCCCN)NC(=O)[C@H](CCCCN)NC(=O)[C@@H](NC(=O)[C@H](CC(C)C)NC(=O)[C@H](CCCCN)NC(=O)[C@H](CC(N)=O)NC(=O)[C@H](Cc1ccccc1)NC(=O)[C@H](CCCNC(=N)N)NC(=O)[C@H](CCCCN)NC(=O)[C@H](CCCNC(=N)N)NC(=O)[C@H](Cc1ccccc1)NC(=O)CN)C(C)C)C(C)C)[C@@H](C)O)[C@@H](C)CC)[C@@H](C)O)C(C)C)C(C)C)C(=O)N[C@H](C(=O)N[C@@H](C)C(=O)NCC(=O)N[C@@H](CO)C(=O)NCC(=O)N[C@H](C(=O)N[C@@H](C)C(=O)N[C@H](C(=O)NCC(=O)N[C@@H](C)C(=O)N[C@@H](C)C(=O)N[C@@H](CCSC)C(N)=O)C(C)C)C(C)C)C(C)C", "test system": "isolate RKI 93/10, CAMHB", "quantity": "MIC", "result": "4 µg/mL"}
{"SMILES": "COc1ccc2ccc3c(c2c1)C=[N+]1C2CCCCC2[N+]2=Cc4cccc(C)c4[O][Au-]21[O]3.F[P-](F)(F)(F)(F)F (stereo not drawn)", "test": "bacterial growth, broth microdilution", "test system": "carbapenem-resistant clinical isolate", "setting": "24 h", "quantity": "MIC", "result": "20 µM"}
